Measurements of several laboratories.
A part holds a random share of what one study measured. Substitutions count along the parent as printed.

Set 1
Target: FOSL2, bZIP domain (human)
Technique: DHFR protein complementation
Matrix: yeast
Notes: single substitutions, most at no-binding floor
Reference: wild-type JUN-FOS pair
Direction: higher = stronger binding
Starting sequence: JUN, bZIP domain (human); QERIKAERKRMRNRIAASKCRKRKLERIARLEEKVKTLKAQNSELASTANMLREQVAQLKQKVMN; partner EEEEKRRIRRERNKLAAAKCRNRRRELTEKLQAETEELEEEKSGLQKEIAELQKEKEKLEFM
| Variant | binding fitness [natural log] |
| --- | --- |
| S47M | 0.0372 |
| L45S | -0.957 |
| E33P | -1.28 |
| Q58P | -1.34 |
| N42T | -0.00831 |
| A49W | -0.486 |
| I28A | -0.142 |
| V35T | -0.168 |
| A49T | -0.407 |
| K39G | -0.521 |
| A40P | -1.15 |
| Q55G | -0.466 |
| V35I | 0.177 |

Set 2
Target: CCND3, cyclin fold, Cln2 fusion (human)
Technique: yeast growth competition, sequencing
Matrix: yeast
Notes: weak parent motif
Reference: not given
Direction: higher = stronger binding
Starting sequence: CUX1 docking peptide (human); SRIRRELFIEEIQ
| Variant | normalised enrichment score |
| --- | --- |
| R2A | -0.00387 |
| R5K F8L | 0.291 |
| F8L | 0.0845 |
| R4A | 0.0836 |
| I9A | 0.0116 |
| I3A | 0.171 |
| F8A | 0.137 |
| R5A L7A | 0.0775 |
| R5A | 0.0767 |

Set 3
Target: Histone acetyltransferase KAT6A, both winged helices, GST fusion (KAT6A, Homo sapiens, UniProt Q92794, residues 1-181)
Technique: protein binding microarray
Form: double-stranded DNA, one strand shown
Matrix: in vitro
Concentration: not given
Notes: 8-mer, flanks averaged, mean of 2 arrays, mostly near background
Reference: not given
Direction: higher = stronger binding
Target sequence (chain): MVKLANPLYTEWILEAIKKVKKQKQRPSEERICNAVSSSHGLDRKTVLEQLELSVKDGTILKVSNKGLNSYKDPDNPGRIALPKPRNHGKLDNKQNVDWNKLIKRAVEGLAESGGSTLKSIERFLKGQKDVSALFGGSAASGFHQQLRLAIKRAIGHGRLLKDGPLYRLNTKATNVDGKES
| Strand | E-score |
| --- | --- |
| GCTATGTA | -0.0561 |
| CCATGCGG | 0.122 |
| CATAGATA | -0.14 |
| CTCGTGAC | -0.0158 |
| CTCGAGCC | 0.0424 |
| ATAAGGGG | -0.198 |
| CACTCTCA | -0.0653 |
| GACCAGAC | -0.259 |
| ACATGTGG | -0.027 |
| CGGACATA | 0.192 |
| CAGTAATC | -0.218 |
| AAAACAAA | -0.0776 |
| GGATATAC | 0.139 |
| CCGGATAA | 0.0785 |
| GTATCGAA | 0.0724 |
| CGAGAAAC | 0.00535 |
| AGCCATAC | -0.122 |
| ACAGGAAC | -0.086 |
| ACGTTCTC | -0.019 |

Set 4
Target: Transcriptional repressor CTCF (CTCF, Homo sapiens, UniProt P49711, residues 1-727, full length assumed)
Technique: protein-binding microarray
Form: double-stranded DNA, one strand shown
Matrix: in vitro
Concentration: not given
Notes: k-mer, scored over probes, only values ≥0.25
Direction: higher = stronger binding
Target sequence (chain): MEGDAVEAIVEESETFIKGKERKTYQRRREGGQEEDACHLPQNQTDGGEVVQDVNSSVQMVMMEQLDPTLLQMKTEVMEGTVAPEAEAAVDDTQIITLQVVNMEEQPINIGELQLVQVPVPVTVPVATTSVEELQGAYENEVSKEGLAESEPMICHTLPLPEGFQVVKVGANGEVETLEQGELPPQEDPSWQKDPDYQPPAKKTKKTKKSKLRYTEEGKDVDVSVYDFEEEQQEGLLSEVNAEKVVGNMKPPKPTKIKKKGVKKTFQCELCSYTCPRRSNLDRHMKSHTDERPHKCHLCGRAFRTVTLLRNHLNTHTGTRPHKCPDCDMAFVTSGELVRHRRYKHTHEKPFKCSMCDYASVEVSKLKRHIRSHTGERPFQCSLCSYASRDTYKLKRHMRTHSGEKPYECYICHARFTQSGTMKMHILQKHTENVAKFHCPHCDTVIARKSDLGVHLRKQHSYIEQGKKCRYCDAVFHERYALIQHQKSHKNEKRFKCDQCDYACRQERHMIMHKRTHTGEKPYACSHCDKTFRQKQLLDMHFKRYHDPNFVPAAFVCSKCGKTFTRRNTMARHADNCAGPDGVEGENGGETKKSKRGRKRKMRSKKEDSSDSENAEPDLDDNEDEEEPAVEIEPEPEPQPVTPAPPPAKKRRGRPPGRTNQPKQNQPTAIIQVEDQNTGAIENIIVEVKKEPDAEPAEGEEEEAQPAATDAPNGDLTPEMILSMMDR
| Strand | E-score |
| --- | --- |
| ATTTTACG | 0.342 |
| ATTTATAC | 0.352 |
| ACCATAAT | 0.303 |
| ACACGTAT | 0.267 |
| TAAATTTA | 0.293 |
| GGTAAACA | 0.294 |
| ATCATTTA | 0.287 |
| AAATATAG | 0.294 |
| ATTAATAA | 0.29 |
| AAATACAA | 0.323 |
| AAAAATGT | 0.318 |
| TAAACGTA | 0.297 |
| GTATGCGA | 0.27 |
| GATGTAAC | 0.312 |
| AACATATT | 0.262 |
| CGGCGCCG | 0.26 |
| CAACATAA | 0.316 |

Set 5
Target: ABI1, truncated, D143A, DHFR fusion (Arabidopsis thaliana)
Technique: DHFR PCA, deep sequencing
Matrix: yeast
Notes: methotrexate growth selection, single substitutions
Together with: (+)-ABA 4.8 µM
Reference: wild-type fitted maximum
Direction: higher = stronger binding
Starting sequence: PYL1, truncated, DHFR fusion (Arabidopsis thaliana); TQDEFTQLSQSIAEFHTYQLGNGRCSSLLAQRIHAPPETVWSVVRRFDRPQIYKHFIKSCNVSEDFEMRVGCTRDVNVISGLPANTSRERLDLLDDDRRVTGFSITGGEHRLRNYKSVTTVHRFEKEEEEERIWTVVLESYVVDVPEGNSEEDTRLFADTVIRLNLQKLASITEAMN
| Variant | relative binding score [%] |
| --- | --- |
| K168D | -4.49 |
| H16F | -19.1 |
| S63V | 61.1 |
| R49K | 77.7 |
| E129V | 66.1 |
| Q19P | 76.9 |
| E129Q | 70.5 |
| T73Q | 62.2 |
| K54Q | -4.97 |
| H110F | 5.86 |
| V76T | 18.9 |
| P37T | 35.6 |
| D96S | -5.69 |
| F66Y | 54.1 |
| T73Y | 80.4 |
| D97G | 58.1 |

Set 6
Target: Prothrombin, mature alpha-thrombin (F2, Homo sapiens, UniProt P00734)
Technique: aptamer microarray, sandwich
Form: DNA with 2'F-ANA
Matrix: in vitro
Concentration: 200 nM
Notes: whole 15-mer aptamer, many near background
Together with: Cy3 exosite-II aptamer, 400 nM
Direction: higher = stronger binding
Strand: GGTTGGTGTGGTTGG
| Modification | mean fluorescence intensity [a.u.] |
| --- | --- |
| 2'F-ANA at 1 3 5 6 8 9 11 13 15 | 56.5 |
| 2'F-ANA at 2 3 7 8 10 12 13 14 15 | 276 |
| 2'F-ANA at 1 3 4 6 10 12 14 | 55.8 |
| 2'F-ANA at 4 5 10 11 12 14 | 46.4 |
| 2'F-ANA at 3 4 7 8 11 13 14 15 | 355 |
| 2'F-ANA at 1 8 10 11 12 13 15 | 76.3 |
| 2'F-ANA at 1 5 8 10 12 13 14 | 44.2 |
| 2'F-ANA at 3 5 12 13 14 | 95.8 |
| 2'F-ANA at 1 2 3 4 5 8 10 11 14 | 48.4 |
| 2'F-ANA at 1 4 6 11 13 14 15 | 68.8 |
| 2'F-ANA at 1 2 7 8 9 15 | 244 |
| 2'F-ANA at 1 3 4 5 7 8 9 10 12 14 | 70 |
| 2'F-ANA at 1 3 4 5 9 10 12 14 | 46 |
| 2'F-ANA at 2 3 4 5 7 9 12 15 | 197 |
| 2'F-ANA at 4 9 10 11 14 15 | 60.8 |
| 2'F-ANA at 4 5 7 8 9 10 11 12 13 | 47.8 |
| 2'F-ANA at 2 3 6 10 12 14 15 | 259 |
| 2'F-ANA at 3 4 5 6 7 9 10 12 13 15 | 54.5 |

Set 7
Target: Sal-like protein 4, full length isoform A (SALL4, Homo sapiens, UniProt Q9UJQ4, residues 1-1053)
Sequence of UniProt Q9UJQ4 (whole entry, looked up): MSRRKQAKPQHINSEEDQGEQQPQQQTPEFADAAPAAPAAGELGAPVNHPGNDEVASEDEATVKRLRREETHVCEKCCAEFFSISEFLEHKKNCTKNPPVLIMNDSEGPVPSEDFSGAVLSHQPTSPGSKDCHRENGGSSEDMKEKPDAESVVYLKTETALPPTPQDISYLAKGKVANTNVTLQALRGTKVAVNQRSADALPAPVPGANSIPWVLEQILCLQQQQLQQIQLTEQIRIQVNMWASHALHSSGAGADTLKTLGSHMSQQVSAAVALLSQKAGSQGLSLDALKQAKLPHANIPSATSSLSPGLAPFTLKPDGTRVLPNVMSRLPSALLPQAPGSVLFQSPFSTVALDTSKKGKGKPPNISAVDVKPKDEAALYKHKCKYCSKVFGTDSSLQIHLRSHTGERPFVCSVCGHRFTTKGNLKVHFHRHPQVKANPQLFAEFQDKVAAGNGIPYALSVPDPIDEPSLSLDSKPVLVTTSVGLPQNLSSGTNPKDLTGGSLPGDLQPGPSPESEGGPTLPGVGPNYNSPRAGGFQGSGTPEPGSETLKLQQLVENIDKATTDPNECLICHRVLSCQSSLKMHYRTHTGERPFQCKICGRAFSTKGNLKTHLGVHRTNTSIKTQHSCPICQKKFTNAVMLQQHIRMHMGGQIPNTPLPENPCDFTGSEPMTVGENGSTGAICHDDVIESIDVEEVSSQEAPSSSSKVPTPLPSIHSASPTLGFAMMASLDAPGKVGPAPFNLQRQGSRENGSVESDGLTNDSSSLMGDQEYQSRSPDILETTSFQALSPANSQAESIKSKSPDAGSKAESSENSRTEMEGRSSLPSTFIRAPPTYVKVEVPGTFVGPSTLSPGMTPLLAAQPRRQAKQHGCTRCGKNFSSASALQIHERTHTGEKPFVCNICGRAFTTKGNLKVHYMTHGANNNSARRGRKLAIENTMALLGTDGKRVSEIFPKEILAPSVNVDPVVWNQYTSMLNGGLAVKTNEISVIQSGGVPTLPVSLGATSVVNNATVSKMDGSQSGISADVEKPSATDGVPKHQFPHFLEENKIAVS
Technique: universal PBM
Form: double-stranded DNA, one strand shown
Matrix: in vitro
Concentration: 600 nM
Notes: 8-mer, flanks averaged, mean of replicates
Direction: higher = stronger binding
| Strand | E-score |
| --- | --- |
| CAGTGAAA | 0.0281 |
| TACAAGAA | 0.258 |
| ATCAAAGA | 0.188 |
| CGGACCAG | -0.338 |
| CTTGAAGC | 0.0169 |
| ACGGGCAG | -0.106 |
| AGATGACA | 0.0472 |
| CAGGCCGA | -0.235 |
| ATGATGGC | -0.0808 |
| GGAATTCA | 0.126 |
| AAGTCTAG | 0.0737 |
| CGGAGCCA | -0.369 |
| GAGCATGC | -0.151 |
| CAGTTGCG | -0.128 |
| ACAATAAC | 0.351 |
| AGAACTTC | -0.0911 |

Set 8
Target: Interferon regulatory factor 7, full length, phosphomimetic (IRF7, Homo sapiens, UniProt Q92985, residues 1-503, S471D/S472D/S475D/S476D/S477D/S483D/S484D/S487D)
Sequence of UniProt Q92985 (whole entry, unmodified, looked up): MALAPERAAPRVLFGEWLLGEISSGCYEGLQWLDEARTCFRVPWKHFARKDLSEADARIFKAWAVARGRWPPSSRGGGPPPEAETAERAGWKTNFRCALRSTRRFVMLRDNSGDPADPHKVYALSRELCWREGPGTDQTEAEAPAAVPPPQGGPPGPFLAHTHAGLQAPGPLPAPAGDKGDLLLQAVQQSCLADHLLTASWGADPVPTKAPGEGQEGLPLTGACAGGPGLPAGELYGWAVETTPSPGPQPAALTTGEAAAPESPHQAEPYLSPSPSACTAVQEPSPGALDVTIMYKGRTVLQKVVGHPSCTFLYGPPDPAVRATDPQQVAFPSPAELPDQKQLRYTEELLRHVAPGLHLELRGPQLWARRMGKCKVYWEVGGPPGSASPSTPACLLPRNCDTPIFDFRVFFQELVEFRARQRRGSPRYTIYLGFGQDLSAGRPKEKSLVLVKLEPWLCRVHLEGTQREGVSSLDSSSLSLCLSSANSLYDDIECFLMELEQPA
Technique: protein-binding microarray
Form: double-stranded DNA, one strand shown
Matrix: in vitro
Concentration: 2200 nM top
Notes: 60-bp whole probe
Together with: salmon DNA 0.4 mg/ml
Reference: random background probes
Direction: higher = stronger binding
All sequences stand within: GCCTAGCAC … GTCTTGATTCGCTTGACGCTGCTG
| Strand | fitted relative affinity [z-score] |
| --- | --- |
| TCATCTAACCTCTCTAATACTGTGCTA | 0.859 |
| CTCCTGCAGCTGCCCTCCTGGTGCTAG | 0.373 |
| TCACTTTCCAACTCTGTTACTGTGCTA | 4.89 |
| GTCGGACTGGACACTGGGGACGTGCTA | -0.705 |
| TAAGGTTTCGGTCTCGGTTAGTGCTAG | 6.11 |
| GACGGTTTGGGTTTCGGGACGTGCTAG | 2.33 |
| TCAACATTCACCATGGCACTGTGCTAG | 0.952 |
| GACGAACTGAGACGGGAGACGTGCTAG | -0.165 |
| GACGAACTGAGTCTCTAGACGTGCTAG | -0.0316 |
| GACGATATCGGGTTTGGAGACGTGCTA | 0.353 |
| GGCGAACTGAGACTGGAGACGTGCTAG | -0.571 |
| TCAACTCTGTTTTCGCTTACTGTGCTA | 4.22 |
| TTAGATTTCGGCTTTCGATTAGTGCTA | 4.98 |
| TCATAAAACAACTTTCAAACTGTGCTA | -0.634 |
| TTAGAGCTCAGTTTCGATTAGTGCTAG | 5.41 |
| CCCATGCTGGATGAAGTACAGTGCTAG | -0.454 |
| AGCAAATTATATCTTATATCGTGCTAG | -0.647 |
| TCAAGTCTCAAAATTAGACTGTGCTAG | -0.585 |
| TTTGAGCTCTGTCTGGGATGGTGCTAG | -0.205 |

A few entries again (set 1):
| Variant | binding fitness [natural log] |
| --- | --- |
| I28A | -0.142 |
| S47M | 0.0372 |
| A49W | -0.486 |
| K39G | -0.521 |
| V35T | -0.168 |
| N42T | -0.00831 |
| Q55G | -0.466 |
| V35I | 0.177 |
| E33P | -1.28 |
| Q58P | -1.34 |
| L45S | -0.957 |
| A49T | -0.407 |
| A40P | -1.15 |
